Published values gathered from unrelated publications.
Technique: steady-state kinetics
B1: protein (UniProt A0A4Y6I0S2); chain MTFEEKPMKFDGLDIEGVAFAPSVAALGSAKPLVLGGAGDRGLEINGNYIKFTAIGIYIEDGIIPHLSSKLSGKTVLELCEKDLLFEEVIYAPFEKLVRVVFIAPLTGIQYSEKVLERISVQALYTDIKEEHKQQFLEIFKGESFPPQSSAILSFSKEGLKVAFSKGDDVPAKAVGTIENARFADAVLGTIIWRDGVSPAAKVSLAERVSKYLQLGPSDGLASVPQSK
B2: UGT3A2 Y474C (Homo sapiens, UniProt Q3SY77); chain AKILTISTVGGSHYLLMDRVSQILQDHGHNVTMLNHKRGPFMPDFKKEEKSYQVISWLAPEDHQREFKKSFDFFLEETLGGRGKFENLLNVLEYLALQCSHFLNRKDIMDSLKNENFDMVIVETFDYCPFLIAEKLGKPFVAILSTSFGSLEFGLPIPLSYVPVFRSLLTDHMDFWGRVKNFLMFFSFCRRQQHMQSTFDNTIKEHFTEGSRPVLSHLLLKAELWFINSDFAFDFARPLLPNTVYVGGLMEKPIKPVPQDLENFIAKFGDSGFVLVTLGSMVNTCQNPEIFKEMNNAFAHLPQGVIWKCQCSHWPKDVHLAANVKIVDWLPQSDLLAHPSIRLFVTHGGQNSIMEAIQHGVPMVGIPLFGDQPENMVRVEAKKFGVSIQLKKLKAETLALKMKQIMEDKRYKSAAVAASVILRSHPLSPTQRLVGWIDHVLQTGGATHLKPCVFQQPWHEQYLLDVFVFLLGLTLGTLWLCGKLLGMAVWWLRGARKVKET
B3: enzyme (Halalkalibacterium halodurans, UniProt Q9KCN8); chain MLNVTQLQEATTFIQQQIETKPTIGLILGSGLGILADEIEQPVKVPYSDIPHFPVSTVQGHAGQLVIGMLEGKQVIAMQGRFHFYEGYSLEVVTFPVRVMKALGVEQIIVTNAAGGVNESFEAGDLMIIRDHINNMAQNPLIGPNDEAFGVRFPDMSNAYSERLRTLAKEKGNTLNLKLQEGVYVANTGPVYETPAEVRMIRKLGGDAVGMSTVPEVIVARHAGLEVLGISCISNMAAGILPQPLSHDEVIETTERVRQDFLNLVKAIVKDM
B4: Comt (Rattus norvegicus, UniProt P22734); chain MPLAAVSLGLLLLALLLLLRHLGWGLVTIFWFEYVLQPVHNLIMGDTKEQRILRYVQQNAKPGDPQSVLEAIDTYCTQKEWAMNVGDAKGQIMDAVIREYSPSLVLELGAYCGYSAVRMARLLQPGARLLTMEMNPDYAAITQQMLNFAGLQDKVTILNGASQDLIPQLKKKYDVDTLDMVFLDHWKDRYLPDTLLLEKCGLLRKGTVLLADNVIVPGTPDFLAYVRGSSSFECTHYSSYLEYMKVVDGLEKAIYQGPSSPDKS
B5: protein (Danio rerio, UniProt A0ACM8QCA3); chain MEVSEFNLLYKGFLLPKLAHTEESLQYLENFKVKDDDVFAVTYPKSGTTWMQNILPPLLNGGDLTPVQTVPNWDRAPWLEEIRAAVVLEERPSPRAIVSHMPYRLMPSSFYKSKAKVIYVARNPKDVIVSSYHFHKMASFLEDPGTFDDFVNKFLSGEIVFGKWSDHIKSWRNPELKDRILYVTYEEMLQDLRGVLCRMLKFLGRELSTEALDRVVSNSTFKNMKTNKMSNYTMVPQEIMDNNKSAFLRKGVAGDWKNFFSPELDAKFTAVIREEMKGTNIKFPWDEE
B6: enzyme S146C (Schizosaccharomyces pombe, UniProt Q9Y7P0); chain MFTGLVEAIGVVKDVQGTIDNGFAMKIEAPQILDDCHTGDSIAVNGTCLTVTDFDRYHFTVGIAPESLRLTNLGQCKAGDPVNLERAVLSSTRMGGHFVQGHVDTVAEIVEKKQDGEAIDFTFRPRDPFVLKYIVYKGYIALDGTCLTITHVDDSTFSIMMISYTQSKVIMAKKNVGDLVNVEVDQIGKYTEKLVEAHIADWIKKTQA
B7: FMO1 I303V (Homo sapiens, UniProt Q01740); chain AKRVAIVGAGVSGLASIKCCLEEGLEPTCFERSDDLGGLWRFTEHVEEGRASLYKSVVSNSCKEMSCYSDFPFPEDYPNYVPNSQFLEYLKMYANHFDLLKHIQFKTKVCSVTKCSDSAVSGQWEVVTMHEEKQESAIFDAVMVCTGFLTNPYLPLDSFPGINAFKGQYFHSRQYKHPDIFKDKRVLVIGMGNSGTDIAVEASHLAEKVFLSTTGGGWVISRIFDSGYPWDMVFMTRFQNMLRNSLPTPIVTWLMERKINNWLNHANYGLIPEDRTQLKEFVLNDELPGRIITGKVFIRPSVKEVKENSVIFNNTSKEEPIDIIVFATGYTFAFPFLDESVVKVEDGQASLYKYIFPAHLQKPTLAIIGLIKPLGSMIPTGETQARWAVRVLKGVNKLPPPSVMIEEINARKENKPSWFGLCYCKALQSDYITYIDELLTYINAKPNLFSMLLTDPHLALTVFFGPCSPYQFRLTGPGKWEGARNAIMTQWDRTFKVIKARVVQESPSPFESFLKVFSFLALLVAIFLIFL
B8: enzyme R201K (Arabidopsis thaliana, UniProt O82390); chain MNARALLCSSNIHSLYTSNRPPEKTSSSRSLRNLKPSPKSLRVWIYPRNRSSVFRVLVRSSDKSESSNSYYVEGDKVSGNNDVVSDSPSSIVLPWWEEFPKRWVIVLLCFSAFLLCNMDRVNMSIAILPMSAEYGWNPATVGLIQSSFFWGYLLTQIAGGIWADTVGGKRVLGFGVIWWSIATILTPVAAKLGLPYLLVVKAFMGVGEGVAMPAMNNILSKWVPVQERSRSLALVYSGMYLGSVTGLAFSPFLIHQFGWPSVFYSFGSLGTVWLTLWLTKAESSPLEDPTLLPEERKLIADNCASKEPVKSIPWRLILSKPPVWALISCHFCHNWGTFILLTWMPTYYHQVLKFNLMESGLLSVFPWMTMAISANAGGWIADTLVSRGFSVTNVRKIMQTIGFLGPAFFLTQLKHIDSPTMAVLCMACSQGTDAFSQSGLYSNHQDIAPRYSGVLLGLSNTAGVLAGVLGTAATGHILQHGSWDDVFTISVGLYLVGTVIWNLFSTGEKIID
B9: UGT1A9 (Homo sapiens, UniProt O60656); chain GKLLVVPMDGSHWFTMRSVVEKLILRGHEVVVVMPEVSWQLGRSLNCTVKTYSTSYTLEDLDREFKAFAHAQWKAQVRSIYSLLMGSYNDIFDLFFSNCRSLFKDKKLVEYLKESSFDAVFLDPFDNCGLIVAKYFSLPSVVFARGILCHYLEEGAQCPAPLSYVPRILLGFSDAMTFKERVRNHIMHLEEHLLCHRFFKNALEIASEILQTPVTEYDLYSHTSIWLLRTDFVLDYPKPVMPNMIFIGGINCHQGKPLPMEFEAYINASGEHGIVVFSLGSMVSEIPEKKAMAIADALGKIPQTVLWRYTGTRPSNLANNTILVKWLPQNDLLGHPMTRAFITHAGSHGVYESICNGVPMVMMPLFGDQMDNAKRMETKGAGVTLNVLEMTSEDLENALKAVINDKSYKENIMRLSSLHKDRPVEPLDLAVFWVEFVMRHKGAPHLRPAAHDLTWYQYHSLDVIGFLLAVVLTVAFITFKCCAYGYRKCLGKKGRVKKAHKSKTH

| Molecule | substrate | system | conditions | Vmax |
| --- | --- | --- | --- | --- |
| B1 (protein) | O=C(/C=C/c1ccc(O)cc1)c1c(O)cc(O)cc1O | – | – | 205 µmol/min/mg |
| B2 (UGT3A2 Y474C) | O=c1ccn([C@@H]2O[C@H](CO[P@@](=O)(O)O[P@@](=O)(O)O[C@H]3O[C@H](CO)[C@@H](O)[C@H](O)[C@H]3O)[C@@H](O)[C@H]2O)c(=O)[nH]1 | – | pH 7.4, 37 °C, not purified, together with: 1-OH-pyrene 16 µM, MgCl2 10 mM, alamethicin | 9.5e-05 µmol/min/mg |
| B3 (enzyme) | Nc1nc2c(ncn2[C@@H]2O[C@H](CO)[C@@H](O)[C@H]2O)c(=O)[nH]1 | – | pH 8 | 0.122 µmol/min |
| CYP2C8 (Homo sapiens, UniProt P10632) | COc1cc2c(cc1CC=C(C)C)C(=O)C[C@@H](c1ccc(O)cc1)O2 | – | pH 7.4, 37 °C | 0.000218 µmol/min/mg |
| B4 (Comt) | O=c1oc2c(O)c(O)ccc2cc1-c1nc2ccccc2s1 | rat liver S9 | pH 7.4, 37 °C | 0.00084 µmol/min/mg |
| ADA (Homo sapiens, UniProt P00813) | Nc1ncnc2c1ncn2[C@@H]1O[C@H](CO)[C@@H](O)[C@H]1O | HEK293, cell homogenate | pH 5.8, 37 °C, not purified | 0.622 µmol/min/mg |
| B5 (protein) | C[C@H](CCCC(CO)CO)[C@H]1CC[C@H]2[C@@H]3[C@H](O)C[C@@H]4C[C@H](O)CC[C@]4(C)[C@H]3C[C@H](O)[C@]12C | – | pH 7, 28 °C, substrate inhibition, together with: PAPS 14 µM | 0.0756 µmol/min/mg |
| B6 (enzyme S146C) | Cc1nc2c(=O)[nH]c(=O)nc-2n(C[C@H](O)[C@H](O)[C@H](O)CO)c1C | – | pH 7.2, 37 °C, apparent | 0.179 µmol/min/mg |
| B7 (FMO1 I303V) | CN1CCC[C@H]1c1cccnc1 | HEK293 microsomes | 37 °C, not purified, together with: NADPH regenerating system | 6.9e-06 µmol/min/mg |
| CYP2C19 (Homo sapiens, UniProt P33261) | CN1C(=O)CC[C@H]1c1cccnc1 | microsomes | pH 6.7, cotinine to COX, not purified | 1.5e-05 µmol/min/mg |
| B8 (enzyme R201K) | O=P(O)(O)O | – | pH 6.5, 25 °C, apparent, not purified | 0.00168 µmol/min/mg |
| B9 (UGT1A9) | COc1cc(-c2cc(=O)c3c(O)cc(O)cc3o2)ccc1O | – | pH 7.4, 37 °C | 0.00276 µmol/min/mg |
| FMO1 (Homo sapiens, UniProt Q01740) | CN1CCC[C@H]1c1cccnc1 | HEK293 microsomes | 37 °C, not purified, together with: NADPH regenerating system | 1.1e-05 µmol/min/mg |
| enzyme (Tanacetum cinerariifolium, UniProt H6U1I8) | C=C/C=C\CC1=C(C)[C@@H](O)CC1=O | – | pH 7.5, 25 °C | 0.154 µmol/min/mg |
| enzyme (Leishmania major, UniProt E9AE57) | O=C(O)C[C@H](O)C(=O)O | – | – | 485 µmol/min/mg |

Some of these lines once more:
| Molecule | substrate | system | conditions | Vmax |
| --- | --- | --- | --- | --- |
| enzyme (Leishmania major, UniProt E9AE57) | O=C(O)C[C@H](O)C(=O)O | – | – | 485 µmol/min/mg |
| B8 (enzyme R201K) | O=P(O)(O)O | – | pH 6.5, 25 °C, apparent, not purified | 0.00168 µmol/min/mg |
